Results pooled from the literature.
Parts stem from different laboratories: compare values within a part only. Positions count from the first letter of the parent shown.

Series 1 — cell line: yeast with cyclin D2-Cln2 chimera; read-out: cell growth; action: binder; method: competitive growth deep sequencing; molecule type: peptide; tested at: concentration not given; setting: peptide tiling library; direction: direction not given; quantity: growth enrichment score
LRRKLFLDGNGSIS: -1.57
IQKKLRFEDTLEFVGF: 0.545
EAAPPTQEAQGETEPT: 0.677
DVSERGYVILPNDYFE: 0.199
QYQVVDDIVSKLVFDF: 0.523
ALLRRLQDVANDRGSH: 2.61
ARKRLELGNLGNPQ: -1.24
CFRCLLFSFSGRSGVE: -1.04
VEEEFFALRKRTPSAG: 0.572
KPHVSDEEEEEPPFYH: 0.671
RSLKLDGLLEEN: -0.166
RDLFDCDFGDLTPLDF: 0.212
GLPDFVFQQQPVESEA: 0.145

Series 2 — method: RNA Bind-n-Seq; molecule type: RNA; matrix: in vitro; tested at: not given; setting: RNA with constant flanks, ends assumed; baseline: input RNA pool; direction: higher = stronger binding; quantity: bound/input enrichment
Target: RING finger protein unkempt homolog, zinc fingers 1-6, GST-SBP tag (UNK, Homo sapiens, UniProt Q9C0B0, residues 30-357)
Shared flanks, not repeated: GGGAGUUCUACAGUCCGACGAUC … CAACAGAGGAUUGAGCAUCA
Target sequence (chain): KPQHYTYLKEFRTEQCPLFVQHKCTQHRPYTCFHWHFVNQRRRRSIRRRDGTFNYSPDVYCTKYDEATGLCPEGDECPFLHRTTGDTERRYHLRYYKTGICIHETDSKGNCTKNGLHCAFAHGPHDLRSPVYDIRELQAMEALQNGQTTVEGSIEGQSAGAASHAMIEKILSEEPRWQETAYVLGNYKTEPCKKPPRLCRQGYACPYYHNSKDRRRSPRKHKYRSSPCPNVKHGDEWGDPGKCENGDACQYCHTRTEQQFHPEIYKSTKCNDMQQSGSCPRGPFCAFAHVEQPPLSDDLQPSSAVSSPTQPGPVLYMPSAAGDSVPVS
GUCCCGUUUGACUUUACACAUAAAAAACAAUCAGGUGGUGCAGGCCAGUAUGGAAAAGUAACCGGUGUCCUGGAGCCUCUGGACCCAGAGGACUACACUAAAUUGGAAUUUUCAGAUGAA: 0.307 ratio
AUCCCCCAGGAAUUGAACAACAUUACCAAGCUCAACGAACACUUCAGCAAAUUUGGAACCACCGUUAAUAUCCAGGUUGCUUUUAAGGGUGAUCCAGAAGCAGCACUCAUCCAAUACCUU: 0.261 ratio
AAACUCAAACAGACGUUGACUUUCUUUGAUGAGCUUCAUAAUGUUGGCAGAGAUCAUGGGACCCGUGAUUUUAGGGAGAGUUUAGUAUCCCUGGUUCAGAACUCCAGAAAACUACAGAAC: 0.247 ratio
UUUUUUAAGUUUUUUUAACGUCUGCUUUUAGAAGUGGAGCUUUGACAGGGUGUUUGCUCGACCGAAAGGCAGCCUCUGUCCUUAAGAAGAGAUUGUUACCAAGACUCCAGGCUAGGAGAG: 0.83 ratio
GCUGUGGCCAGAGGCUGUGCACUGCAGUGUGCAAUUCUUUCUCCGGCAUUUAAAGUCCGAGAGUUCUCUGUCACCGAUGCAGUUCCUUUUCCAAUAUCUCUGGUCUGGAACCACGACUCG: 0.0848 ratio
UGUGAAAGAAAGGUUUUGCAUUCUGUCUACACAUUCGGCAGGAAUGAGUCCAGUUCCCUGUUCCGAUUCUUUGAGUGUAAUUUAUUGUGAAUGGCAGUUCAAAAUUCAGUUGAUCGGUCU: 0.133 ratio
CUUGGCCAGGAGGGUGAUGCCAGCUAUCUUGCUUCUGAAAUAUCUACCUGGGAUGGAGUGACCGUAACACCUUCAGAAAAGGCUUAUGAGAAGCCACCAGAGAAGAAGGAAGGAGAGGAA: 0.176 ratio
GAAAAAUACUUCCAAUUCCAAGAAGAGGGCAAGGAAGGAGAGAACAGGGCAGUUAUCCAUUACCGGGAUGAUGAGACCAUGUAUGUUGAGUCUAAAAAGGACAGAGUCACAGUAGUCUUC: 0.239 ratio
GGAGCAGAUGCUGAUCUCAUUAUGCUUGGCCUUGCCACACAUGAACCGAACUUUACCAUUAUCCGAGAAGAAUUCAAACCAAACAAGCCCAAACCAUGUGGUCUUUGUAAUCAGUUUGGA: 0.0862 ratio
GAGAAUCAGGAAUCAUUGAGAUCUCUGGGAGCAUGGAACCUGGAGAAUUUGAGAUCUCCAGAGGAGGCCGACAAGGAAAGUCAAAGGAAUCUGGAAGAGGAAGAGAACCUGGGAAAGGGA: 0.353 ratio
AAGCACUUUCAGCAGGCAAAAAUGAUCCUUGAAAAUAUCCCCAAUCCAGACCGUGAGGUCAGCCGAAUCCUGAAGGUUGCCAAGCCCAACUUUGUGGUUAUGAAGCUCUUAGCAGGAGGA: 0.177 ratio

Series 3 — method: protein-binding microarray; molecule type: double-stranded DNA, one strand shown; matrix: in vitro; tested at: 250 nM; setting: 60-bp whole probe; with: salmon DNA 0.4 mg/ml; baseline: random background probes; direction: higher = stronger binding; quantity: log fluorescence; shared flanks, not repeated: GCCTAGCAC … GTCTTGATTCGCTTGACGCTGCTG
Target: Interferon regulatory factor 5, full length, phosphomimetic (IRF5, Homo sapiens, UniProt Q13568-2, residues 1-514, K96S/S451D/S453D/S456D/S462D)
TTAGGTATCGGGTTGCGGTTAGTGCTA: 3.82 z-score
TCAATTGTGGGTCTTGCACTGTGCTAG: -0.0641 z-score
TTAGATTTCGGGTAACGATTAGTGCTA: 5.5 z-score
GACGAACTGAGTTTCCAGACGTGCTAG: -0.0914 z-score
TCAAATTAGTGTTTTGCACTGTGCTAG: 0.0645 z-score
TCATCTCACGCATCTGAAACTGTGCTA: 0.398 z-score
GACAATTTGGAAACCGAGTGGTGCTAG: -0.102 z-score
GAAATTTTTTTTCTAACTAAGTGCTAG: 1.63 z-score
TTAGATCTCAGGATCGATTAGTGCTAG: 0.17 z-score
TTAGGTTTCGACACGGGGTTAGTGCTA: 5.97 z-score
TTAGGTTTCGAATATCGGTTAGTGCTA: 7.09 z-score
GACCGTCTCGGACTGGGGACGTGCTAG: -0.45 z-score
TGCTTCCTCTTTCTCTGCTAGTGCTAG: 1.6 z-score
GACGGTATCCCTATCCTGACGTGCTAG: -0.093 z-score
GACGGTTTCGGTTCCGGGACGTGCTAG: 9.5 z-score
GACGATTTCGACTTTCGGGACGTGCTA: 6.61 z-score
TTGGGTATCCTTCTCCTTTAGTGCTAG: 0.0165 z-score
GACGGTTTCCTACTGCTGAGGTGCTAG: 0.461 z-score
TTAGGACTAGGTCTCGGTTAGTGCTAG: 0.127 z-score
TTTCATTTATTTACTCTCTACGTGCTA: 8.31 z-score

Series 4 — method: RNA Bind-n-Seq; molecule type: RNA; matrix: in vitro; tested at: 365 nM; baseline: no-protein control; direction: higher = stronger binding; quantity: RBNS enrichment (R)
Target: RNA binding protein fox-1 homolog 2, RRM domain, GST-SBP tag (RBFOX2, Homo sapiens, UniProt O43251-10, residues 100-194)
Setting: natural RNA segment, single round, ends assumed
Shared flanks, not repeated: GGGAGUUCUACAGUCCGACGAUC … UGGAAUUCUCGGGUGCCAA
Residues (chain): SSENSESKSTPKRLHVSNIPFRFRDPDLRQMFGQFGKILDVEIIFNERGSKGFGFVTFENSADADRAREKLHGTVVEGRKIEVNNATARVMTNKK
UAGCCCAAUGAAGGUGAUGAAGCUUUUGGAUUUGGAGGGUAAAAGCUCCUUCACACCCCUUCCAAAAGUCAGUCACAGACCACUGCAACAUGCCUUCCCUGCUGGAUCAU: 0.828
GUGACAAACAUGCAAUGUGCUGUAAAAACUCAAUACAGUUCAAAUAAAAUCUCUAUAUUAGUGCUGCUUUGUUGGGUCUUUUUAUUUCUUACUGGUAUUGGGAUUGAGUC: 0.602
AUCAGGUUAUUUCCUAAUGUAAGAAUAGCUAAAAUGUUGCAGAGAAAUAAGUGACCCAACAAAAUUUAUUCAUCUGUUAUGGGUAAGAUCUGCCAUAAAUUCUUCCUAAA: 0.535
CUCUCUCCCAAUAAGAAGCAGGUGCCUUUGGGGAAUGCUCCAACCUGUUUCAUCCCCAAAAGUUUUUCCGAGGACACUGUCAUGCACGACCUCACAUUUCUAAAAGACCU: 3.96
CCAGGGUGAAAGGGCUGGCAUGGCAUCGCUCAUUUUAUUGCUCUGCAGGUAAACUGUAUAGGUAUAGAGUCCUCCAGUGCUCUGAAGAGCCCUGCCUCUAUGCACGCCCC: 0.386
CACAUUGCAAUCACUUGAUUGUGAGUCCUUGGGAGCAAAUGCCUGAUGCUGUAUUUUCACAACUCUGAGGAAACGUCUGGGAACUCCUAGGGGUAGGCGAUUGACUGCCU: 0.418
UUAAUAGGGUCAUAUUGUGAAUGUCUCACUACAAAAUGACUUGAGUCCAGUGAAAUCUCAUUAGGGUUUAAGAAUAUUUCAGGGAUCCUUAAUGUUUUGAUUUUUGUUUU: 0.439
AGAACCGAGUGCCUAUGAGGACAGUGUCCGCCCUGCCCUCCGCAACGUGCAGUCCCUGGGCACGGCGGGCCCUGCCAUGUGCUGGUAACGCAUGCCUGGGCCCUGCUGGG: 2.57
UUACUUAGUAAUCACAGAUUUACCUAAAAUAAAAGGACCCGGGUUGCAGUGAUAUUUAGUUAAUGAUUUGUUUUGGAAAACAUGCAGUUAGGAGUAUUUUUGUAUUUUGU: 0.626
CUUAGGAAGGAUGCCUUGUGCCUAUGGGCCCUUUGGUGACAUGUGGGGCUCUGGAUCCUUGGGUGUCCUCACUGUGGCCACUCUGCCUGCUGAGGACAGCCAGAAGCCCA: 0.525
CAUUUGUAAAACCACCAGCAUCAGGAGUAAGGGGGAGGCCAGAGGGCUCAGAUGGACACAGAAUUCUAGCUUUACCUGCAUCCGCUGAUUCAGUUUUCUGUUGGGAUCAG: 2.28
ACGGGGAUGGCAACCAACAGGACUGCUAACACCUGGUGGACCAUUCUGAGUCGAUAGAAGCAGUGGUCAUCGUGUGUACUCCGACAUCUGAUGCUGUUCUCGAAAGAGAG: 0.247

Series 5 — method: DHFR PCA, deep sequencing; matrix: yeast; with: (+)-ABA 4.8 µM; baseline: wild-type fitted maximum; direction: higher = stronger binding; quantity: relative binding score
Target: ABI1, truncated, D143A, DHFR fusion (Arabidopsis thaliana)
Setting: methotrexate growth selection, single substitutions
Parent: PYL1, truncated, DHFR fusion (Arabidopsis thaliana); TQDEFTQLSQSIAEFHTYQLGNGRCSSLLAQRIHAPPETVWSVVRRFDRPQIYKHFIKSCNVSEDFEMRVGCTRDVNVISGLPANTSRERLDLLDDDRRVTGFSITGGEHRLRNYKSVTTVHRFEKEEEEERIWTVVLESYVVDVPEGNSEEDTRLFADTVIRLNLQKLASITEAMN
R155L: 33.7%
S87W: 8.29%
F47T: 9.76%
H16K: -8.66%
E14T: 49.6%
H16G: 7.44%
E64A: 77.7%
L8R: 6.95%
V136M: 75.3%
Y18C: 24.6%
I52A: 71.5%
Q7R: 67%
R69P: 6.47%
T17C: 44.6%
T86Y: 72.7%
N85H: 70.7%
R49Q: 82.5%
V62P: 2%
V100S: 4.83%

Some of these lines once more (series 4):
CUCUCUCCCAAUAAGAAGCAGGUGCCUUUGGGGAAUGCUCCAACCUGUUUCAUCCCCAAAAGUUUUUCCGAGGACACUGUCAUGCACGACCUCACAUUUCUAAAAGACCU: 3.96
CCAGGGUGAAAGGGCUGGCAUGGCAUCGCUCAUUUUAUUGCUCUGCAGGUAAACUGUAUAGGUAUAGAGUCCUCCAGUGCUCUGAAGAGCCCUGCCUCUAUGCACGCCCC: 0.386
CACAUUGCAAUCACUUGAUUGUGAGUCCUUGGGAGCAAAUGCCUGAUGCUGUAUUUUCACAACUCUGAGGAAACGUCUGGGAACUCCUAGGGGUAGGCGAUUGACUGCCU: 0.418
UUAAUAGGGUCAUAUUGUGAAUGUCUCACUACAAAAUGACUUGAGUCCAGUGAAAUCUCAUUAGGGUUUAAGAAUAUUUCAGGGAUCCUUAAUGUUUUGAUUUUUGUUUU: 0.439
AGAACCGAGUGCCUAUGAGGACAGUGUCCGCCCUGCCCUCCGCAACGUGCAGUCCCUGGGCACGGCGGGCCCUGCCAUGUGCUGGUAACGCAUGCCUGGGCCCUGCUGGG: 2.57
UUACUUAGUAAUCACAGAUUUACCUAAAAUAAAAGGACCCGGGUUGCAGUGAUAUUUAGUUAAUGAUUUGUUUUGGAAAACAUGCAGUUAGGAGUAUUUUUGUAUUUUGU: 0.626
CUUAGGAAGGAUGCCUUGUGCCUAUGGGCCCUUUGGUGACAUGUGGGGCUCUGGAUCCUUGGGUGUCCUCACUGUGGCCACUCUGCCUGCUGAGGACAGCCAGAAGCCCA: 0.525
CAUUUGUAAAACCACCAGCAUCAGGAGUAAGGGGGAGGCCAGAGGGCUCAGAUGGACACAGAAUUCUAGCUUUACCUGCAUCCGCUGAUUCAGUUUUCUGUUGGGAUCAG: 2.28
ACGGGGAUGGCAACCAACAGGACUGCUAACACCUGGUGGACCAUUCUGAGUCGAUAGAAGCAGUGGUCAUCGUGUGUACUCCGACAUCUGAUGCUGUUCUCGAAAGAGAG: 0.247
